Assay results of several laboratories.
Lines come from different studies, so protocols differ. ± gives the spread as reported.
Organism: Escherichia coli

CC[C@H](C)[C@H](NC(=O)[C@H](C)NC(=O)[C@@H]1CCCN1C(=O)[C@@H](NC(=O)[C@@H](NC(=O)[C@H](CS)NC(=O)[C@@H]1CCCN1C(=O)[C@H](CCC(=O)O)NC(=O)[C@@H]1CCCN1C(=O)[C@@H]1CCCN1C(=O)[C@@H](NC(=O)[C@@H](N)CCC(N)=O)C(C)C)[C@@H](C)O)[C@@H](C)CC)C(=O)N[C@H](C(=O)N[C@H](C(=O)N[C@@H](CCCCN)C(=O)N[C@H](C(=O)N[C@@H](CCC(N)=O)C(=O)N[C@@H](CCCNC(=N)N)C(=O)N[C@@H](CCCNC(=N)N)C(=O)N[C@@H](CCCNC(=N)N)C(=O)NCC(=O)N[C@@H](Cc1ccc(O)cc1)C(=O)N[C@H](C(=O)N[C@H](C(=O)N[C@@H](CO)C(=O)N[C@@H](CCCCN)C(=O)N[C@@H](CCCNC(=N)N)C(=O)N[C@@H](CCCNC(=N)N)C(=O)N[C@H](C(=O)N[C@@H](Cc1ccccc1)C(=O)O)C(C)C)[C@@H](C)CC)[C@@H](C)CC)[C@@H](C)CC)C(C)C)[C@@H](C)CC — MIC (broth microdilution; K88, Mueller-Hinton broth; 37 °C): 9.94 µM
CC[C@H](C)[C@H](NC(=O)[C@H](Cc1c[nH]c2ccccc12)NC(=O)[C@@H](NC(=O)[C@@H](NC(=O)[C@@H](NC(=O)[C@H](CCCNC(=N)N)NC(=O)[C@@H](N)CCCNC(=N)N)[C@@H](C)CC)[C@@H](C)O)[C@@H](C)CC)C(=O)N[C@H](C(=O)N[C@H](C(=O)N[C@@H](CCCNC(=N)N)C(=O)N[C@@H](CCCNC(=N)N)C(N)=O)[C@@H](C)CC)[C@@H](C)O — MIC (UB1005; 24 h, 37 °C): 8 µM
CC1(C)SC2C(NC(=O)C(NC(=O)C3=C(O)C4CCCN4C3=O)c3ccccc3)C(=O)N2C1C(=O)O (stereo not drawn) — MIC (broth microdilution; ATCC 35218, low-level TEM-1; no clavulanic acid): > 200 µg/mL
N=C(N)NCCC[C@H](NC(=O)[C@H](Cc1c[nH]c2ccccc12)NC(=O)[C@@H](N)CCCNC(=N)N)C(=O)N[C@@H](Cc1c[nH]c2ccccc12)C(=O)N[C@@H](Cc1ccccc1)C(=O)N[C@@H](CCC(N)=O)C(=O)N[C@@H](Cc1ccccc1)C(=O)N[C@@H](CCC(N)=O)C(=O)N[C@@H](Cc1ccccc1)C(=O)N[C@@H](CCCCN)C(N)=O — MIC (broth microdilution, optical density): 4.4 µM
CC[C@H](C)[C@H](NC(=O)CN)C(=O)NCC(=O)N[C@@H](CCCCN)C(=O)N[C@@H](Cc1ccccc1)C(=O)N[C@@H](CC(C)C)C(=O)N[C@@H](Cc1c[nH]cn1)C(=O)N[C@@H](CO)C(=O)N[C@@H](C)C(=O)N[C@@H](CCCCN)C(=O)N[C@@H](CCCCN)C(=O)N[C@@H](Cc1ccccc1)C(=O)NCC(=O)N[C@@H](CCCCN)C(=O)N[C@@H](C)C(=O)N[C@@H](Cc1ccccc1)C(=O)N[C@H](C(=O)NCC(=O)N[C@@H](CCC(=O)O)C(=O)N[C@H](C(=O)N[C@@H](CCSC)C(=O)N[C@@H](CC(N)=O)C(=O)N[C@@H](CO)C(N)=O)[C@@H](C)CC)C(C)C — MIC (broth dilution; K12 BW25113): 3.6 µM
CC[C@H](C)[C@H](NC(=O)CNC(=O)[C@H](CC(=O)O)NC(=O)[C@H](C)NC(=O)[C@@H](NC(=O)[C@H](CC(N)=O)NC(=O)[C@H](CCCNC(=N)N)NC(=O)CNC(=O)[C@@H](NC(=O)[C@H](CCCCN)NC(=O)[C@H](CCC(=O)O)NC(=O)[C@@H](NC(=O)[C@H](CCCCN)NC(=O)[C@H](CCCCN)NC(=O)[C@H](Cc1ccccc1)NC(=O)[C@@H](NC(=O)[C@H](CCCCN)NC(=O)[C@H](Cc1c[nH]c2ccccc12)NC(=O)[C@@H](N)CCCNC(=N)N)[C@@H](C)CC)[C@@H](C)CC)C(C)C)C(C)C)C(=O)N[C@H](C(=O)N[C@@H](CCCCN)C(=O)N[C@@H](C)C(=O)NCC(=O)N1CCC[C@H]1C(=O)N[C@@H](C)C(=O)N[C@H](C(=O)N[C@@H](C)C(=O)N[C@H](C(=O)N[C@H](C(=O)NCC(=O)N[C@@H](CCC(N)=O)C(=O)N[C@@H](C)C(=O)N[C@@H](C)C(=O)N[C@H](C(=O)N[C@H](C(=O)N[C@H](C(=O)N[C@@H](CCCCN)C(N)=O)C(C)C)C(C)C)[C@@H](C)O)C(C)C)C(C)C)C(C)C)[C@@H](C)CC — MIC (K1 ATCC 700973, Mueller-Hinton broth; 16 h, 37 °C; growth inhibition over 99%): 2 µM
CC[C@H](C)[C@H](NC(=O)[C@H](CC(C)C)NC(=O)[C@H](CCCNC(=N)N)NC(=O)[C@@H](N)CCCNC(=N)N)C(=O)N[C@@H](CCCNC(=N)N)C(=O)N[C@@H](CCCCN)C(=O)N[C@@H](CC(C)C)C(=O)N[C@@H](CCCCN)C(=O)NCC(=O)N[C@@H](CC(C)C)C(=O)N[C@@H](CCCCN)C(=O)N[C@@H](CCCCN)C(=O)N[C@@H](Cc1ccc(O)cc1)C(=O)N[C@@H](CC(C)C)C(=O)N[C@@H](Cc1ccc(O)cc1)C(=O)N[C@@H](Cc1ccccc1)C(=O)N[C@@H](CCCCN)C(=O)N[C@@H](CC(C)C)C(=O)N[C@@H](CCC(N)=O)C(=O)N[C@@H](CC(C)C)C(=O)N[C@@H](CC(C)C)C(=O)N[C@@H](CCCCN)C(=O)N[C@@H](CCCCN)C(N)=O — MIC (KCTC 1682, Mueller-Hinton broth; added: 2.5 mM CaCl2): 16 µM
CC(C)(C)OCC1NC(=O)C(C(=O)NC(C(=O)NC2C(=O)N3C2SC(C)(C)C3C(=O)O)c2ccccc2)=C1O (stereo not drawn) — MIC (broth microdilution; JW0790-2 fiu deletion mutant; ferric iron uptake gene): 25 µg/mL
CC1=C[C@@H]2CN(C(=O)N2OS(=O)(=O)O)[C@@H]1C(N)=O — MIC (ATCC 2469, NDM-positive; compound alone): > 128 µg/mL
CC[C@H](C)[C@H](NC(=O)CNC(=O)[C@H](CC(=O)O)NC(=O)[C@H](CCCNC(=N)N)NC(=O)[C@@H](NC(=O)[C@H](CC(N)=O)NC(=O)[C@H](CCCNC(=N)N)NC(=O)CNC(=O)[C@@H](NC(=O)[C@H](CCCCN)NC(=O)[C@H](CCC(=O)O)NC(=O)[C@@H](NC(=O)[C@H](CCCCN)NC(=O)[C@H](CCCCN)NC(=O)[C@H](Cc1ccccc1)NC(=O)[C@@H](NC(=O)[C@H](CCC(=O)O)NC(=O)[C@H](Cc1c[nH]c2ccccc12)NC(=O)[C@@H](N)CCCNC(=N)N)[C@@H](C)CC)[C@@H](C)CC)C(C)C)C(C)C)C(=O)N[C@H](C(=O)N[C@@H](CCCCN)C(=O)N[C@@H](C)C(=O)NCC(=O)N1CCC[C@H]1C(=O)N[C@@H](C)C(=O)N[C@H](C(=O)N[C@@H](C)C(=O)N[C@H](C(=O)N[C@H](C(=O)NCC(=O)N[C@@H](CCC(N)=O)C(=O)N[C@@H](C)C(=O)N[C@@H](C)C(=O)N[C@H](C(=O)N[C@H](C(=O)N[C@H](C(=O)N[C@@H](CCCCN)C(N)=O)C(C)C)C(C)C)[C@@H](C)O)C(C)C)C(C)C)C(C)C)[C@@H](C)CC — MIC (K1 ATCC 700973, Mueller-Hinton broth; 16 h, 37 °C; growth inhibition over 99%): 16 µM
c1ccc(CCOC2CCCc3c2[nH]c2ccccc32)cc1 (stereo not drawn) — MIC (broth microdilution; O-19592): > 128 µg/mL
C/C(O)=C1\C(=O)C(CC(C)C)N(C(=O)C=Cc2ccccc2)C1=O (stereo not drawn) — MIC (K12 ΔtolC): 1.56 µg/mL
C[C@@H](O)[C@H]1C(=O)N2C(C(=O)O)=C(S[C@@H]3CN[C@H](C(=O)N(C)C)C3)[C@H](C)[C@H]12 — MIC (DH5α expressing KPC-137): 0.5 µg/mL
CC(C)Oc1c(NC(=O)c2ccc(N3C(=O)C[C@H](NC(=O)c4ccc(NC(=O)c5ccc(C#N)cc5)cc4)C3=O)cc2)ccc(C(=O)N/N=C/c2cnn(C)c2)c1O — MIC (BW25113; 18 h, 37 °C, dark-adapted state): 0.32 µg/mL
C[C@@H](O)[C@H]1C(=O)N2C(C(=O)O)=C(S[C@@H]3CN[C@H](CNS(N)(=O)=O)C3)[C@H](C)[C@H]12 — MIC (BL21(DE3) carrying Ftu-1): < 0.09 µg/mL
CC(C)C[C@@H](NC(=O)CNC(=O)[C@@H](CCCCN)NC(=O)[C@@H](CC(C)C)NC(=O)[C@@H](CCCCN)NC(=O)[C@@H](CCCNC(=N)N)NC(=O)[C@@H](CC(C)C)NC(=O)[C@@H](CC(C)C)NC(=O)[C@@H](CCCNC(=N)N)NC(=O)[C@H](N)CCCNC(=N)N)C(=O)N[C@H](CCCCN)C(=O)N[C@H](CCCCN)C(=O)N[C@H](Cc1ccc(O)cc1)C(=O)N[C@H](CC(C)C)C(=O)N[C@H](Cc1ccc(O)cc1)C(=O)N[C@H](Cc1ccccc1)C(=O)N[C@H](CCCCN)C(=O)N[C@H](CC(C)C)C(=O)N[C@H](CCC(N)=O)C(=O)N[C@H](CC(C)C)C(=O)N[C@H](CC(C)C)C(=O)N[C@H](CCCCN)C(=O)N[C@H](CCCCN)C(N)=O — MIC (broth microdilution; KCTC 1682, Mueller-Hinton broth; added: NH4Cl 6 µM): 16 µM
CC[C@H](C)[C@H](NC(=O)[C@H](CCCNC(=N)N)NC(=O)[C@H](CCC(N)=O)NC(=O)[C@@H](NC(=O)[C@@H](NC(=O)[C@H](CCC(N)=O)NC(=O)[C@H](C)N)[C@@H](C)CC)C(C)C)C(=O)N[C@@H](CCCCN)C(=O)N[C@@H](CC(=O)O)C(=O)N[C@@H](Cc1ccccc1)C(=O)N[C@@H](CC(C)C)C(=O)N[C@@H](CCCNC(=N)N)C(N)=O — MIC (broth microdilution; K12; 16 h, 37 °C): 240 ± 86 µM
CC[C@H](C)[C@H](NC(=O)[C@H](CCCNC(=N)N)NC(=O)[C@H](CCCNC(=N)N)NC(=O)[C@H](CCCNC(=N)N)NC(=O)[C@H](CCCNC(=N)N)NC(=O)[C@H](CCCNC(=N)N)NC(=O)[C@@H](N)CCCNC(=N)N)C(=O)N[C@@H](CO)C(=O)N[C@@H](Cc1ccccc1)C(=O)N[C@@H](CC(C)C)C(=O)NCC(=O)N[C@@H](CO)C(=O)N[C@@H](CCCCN)C(=O)N[C@H](C(=O)N[C@H](C(=O)N[C@H](C(=O)N[C@@H](CC(C)C)C(=O)N[C@@H](CC(C)C)C(=O)N[C@@H](CCCCN)C(=O)N[C@@H](CCCNC(=N)N)C(=O)N[C@@H](CCCNC(=N)N)C(=O)N[C@@H](CCCNC(=N)N)C(=O)N[C@@H](CCCNC(=N)N)C(=O)N[C@@H](CCCNC(=N)N)C(N)=O)C(C)C)C(C)C)C(C)C — MIC (checkerboard; 24 h, 37 °C, alone, azithromycin plate): 4 µM
CC1(C)CC[C@]2(C(=O)O)CC[C@]3(C)C(=CC[C@@H]4[C@@]5(C)CC[C@H](O)C(C)(C)[C@@H]5CC[C@]43C)[C@@H]2C1 — MIC (NDM-5): 512 µg/mL
CN1C(=O)Cc2ccc(F)c(CNCCCC3CN(c4ccc5c(n4)NC(=O)CO5)C(=O)O3)c21 (stereo not drawn) — MIC (ATCC 25922): 0.25 µg/mL
C[C@@H](O)[C@H]1C(=O)N2C(C(=O)O)=C(S[C@@H]3CN[C@H](C(=O)N(C)C)C3)[C@H](C)[C@H]12 — MIC (DH10B expressing IMP-1/pBCSK+): 2 µg/mL
